Measured values of several laboratories.
Each line is one published result; not all experiments were run side by side. ± marks the error that the study gave.
HTR2A: 5-hydroxytryptamine receptor 2A (HTR2A, Homo sapiens, UniProt P28223)
MIF: Macrophage migration inhibitory factor (MIF, Homo sapiens, UniProt P14174)
GPR84: G-protein coupled receptor 84 (GPR84, Homo sapiens, UniProt Q9NQS5)
ESR2: Estrogen receptor beta (ESR2, Homo sapiens, UniProt Q92731)

Compound | target | test | system | conditions | EC50 [nM]
CCn1c(-c2nc3ccc(C(=O)N4CCCC(N)C4)cc3n2C)cc2ccccc21 (stereo not shown) | HTR2A | intracellular calcium, agonist, luminescence |  |  | > 39800
Oc1ccc(-n2cc(-c3ccccn3)nn2)cc1 | MIF | binding, competitive inhibitor, fluorescent indicator displacement | biochemical | 10 min, MIF 100 nM, with: 7-hydroxycoumarin indicator 50 nM | 11600 ± 1400
O=Nc1c(NCCCc2ccccc2)[nH]c(=O)[nH]c1=O | GPR84 | cAMP level, agonist | human cells |  | 1530 ± 110
O=C(O)CCC/C=C\CC1C2CCC(O2)C1/C=C/C(O)COc1ccc(I)cc1 (stereo not shown) | TBXA2R (Homo sapiens, UniProt P21731) | agonist, cell-based |  |  | 58.5
COc1cc2c(=O)c(-c3ccc(O)cc3)coc2cc1O | ESR2 | array formation, agonist | GFP-ERβ PRL-HeLa | 1 h | 127
N[C@@H](CCC(=O)O)C(=O)O | uncharacterized protein (Ixodes scapularis, UniProt A0A0N9E2I2) | ion current, agonist |  | no modulator present | 242000
CCCCCCCP(=O)(C(C)C)C(C)C | TRPM8 (Gallus gallus, UniProt A0AA95FIJ1) | calcium influx, agonist, calcium imaging |  | 32 °C | 1330 ± 100
COc1ccc(N2Cc3ccc(O)cc3OC2=O)cc1OC | MIF | binding, competitive inhibitor, fluorescent indicator displacement | biochemical | 10 min, MIF 100 nM, with: 7-hydroxycoumarin indicator 50 nM | 316 ± 34
CCn1c(-c2nc3cc(C(=O)N4CCC[C@@H](N)C4)cc(OC)c3n2C)cc2cccnc21 | HTR2A | intracellular calcium, agonist, luminescence |  |  | > 39800
O=c1c(O)c(-c2ccc(O)c(O)c2)oc2cc(O)ccc12 | ESR2 | array formation, agonist | GFP-ERβ PRL-HeLa | 1 h | 4330
O=c1cc(NCCc2cccc(Br)c2)[nH]c(=O)[nH]1 | GPR84 | cAMP level, agonist | human cells |  | 63.9 ± 4.7
O=C(COP(=O)(O)O)[C@@H](O)[C@H](O)[C@H](O)COP(=O)(O)O | Pyruvate kinase PKM (PKM, Homo sapiens, UniProt P14618) | pyruvate kinase activity, activator | SK-HEP1 cell lysate | with: AIM | 870 ± 345
NCC(=O)O | Sodium- and chloride-dependent neutral and basic amino acid transporter B(0+) (Slc6a14, Mus musculus, UniProt Q9JMA9) | transport current, substrate, two-electrode voltage clamp | Xenopus oocytes | holding potential -40 mV | 189000 ± 5600
O=c1[nH]c(NCCc2ccc(Br)cc2)c(Br)c(=O)[nH]1 | GPR84 | agonist |  |  | 6610
COc1ccc(Br)c(CNc2cccnc2)c1 | Melatonin receptor type 1A (Mtnr1a, Mus musculus, UniProt Q61184) | cAMP accumulation, agonist, GloSensor cAMP | HEK cells transiently transfected | with: isoproterenol | 17
O=C(/C=C/c1ccccc1)c1ccccc1 | ESR2 | array formation, agonist | GFP-ERβ PRL-HeLa | 1 h | 696

Compound | target | test | system | conditions | EC50 [nM]
COc1ccc(C(=O)N/N=C/c2ccc(O)c(F)c2)cc1 | MIF | binding, competitive inhibitor, fluorescent indicator displacement | biochemical | 10 min, MIF 100 nM, with: 7-hydroxycoumarin indicator 50 nM | 16300 ± 1600
O=c1cc(NCCc2ccccc2Cl)[nH]c(=O)[nH]1 | GPR84 | cAMP level, agonist | human cells |  | 104 ± 21
COc1ccc(-c2oc3cc(O)cc(O)c3c(=O)c2O)cc1 | ESR2 | array formation, agonist | GFP-ERβ PRL-HeLa | 1 h | 744
CCc1oc2c([C@H](CO)N(CC)CC)cccc2c1C | LPAR1 (Homo sapiens, UniProt Q92633) | Gi protein dissociation, agonist, NanoBiT | HEK293T | reduced receptor expression | 1.12
CCCCCNc1cc(=O)[nH]c(=O)[nH]1 | GPR84 | agonist |  |  | 4790
COc1cc(Nc2ncc3c(n2)-c2ccc(Cl)cc2C(c2c(F)cccc2OC)=NC3)ccc1C(=O)NCCOCCOCCNC(=O)COc1cccc2c1C(=O)N(C1CCC(=O)NC1=O)C2=O (stereo not shown) | Aurora kinase B (AURKB, Homo sapiens, UniProt Q96GD4) | binding, kinobead competition | MV4-11 cell lysate |  | 12600
CC1(C)C=Cc2c(ccc3c2OC[C@@H](c2ccc(O)cc2O)C3)O1 | ESR2 | array formation, agonist | GFP-ERβ PRL-HeLa | 1 h | 1990
CCCCCCN(C)c1cc(=O)[nH]c(=O)[nH]1 | GPR84 | agonist |  |  | 4170
COc1ccc(-c2cc(=O)c3c(O)cc(O[C@@H]4O[C@H](CO)[C@@H](O)[C@H](O)[C@H]4O[C@@H]4O[C@@H](C)[C@H](O)[C@@H](O)[C@H]4O)cc3o2)cc1O | ESR2 | array formation, agonist | GFP-ERβ PRL-HeLa | 1 h | 424
C#Cc1ccc(-c2ccc(C(=O)N[C@@H](CCCN=C(N)CCl)c3nc4ccccc4[nH]3)cc2)cc1 | STING1 (Homo sapiens, UniProt Q86WV6, G230A/H232R/R293Q/R71H) | IRF reporter gene, inhibitor | THP-1 Dual | with: diABZI | 800
Cc1cccc(CCNc2cc(=O)[nH]c(=O)[nH]2)c1 | GPR84 | agonist |  |  | 782 ± 220
Oc1cc(O)c2c(c1)O[C@H](c1cc(O)c(O)c(O)c1)[C@@H](O)C2 | ESR2 | array formation, agonist | GFP-ERβ PRL-HeLa | 1 h | 5350
CCCCCCCCN(C)c1cc(=O)[nH]c(=O)[nH]1 | GPR84 | cAMP level, agonist |  |  | 37.9 ± 20.1
Oc1ccc2c(c1)OC[C@]1(O)Cc3cc(O)c(O)cc3[C@H]21 | ESR2 | array formation, agonist | GFP-ERβ PRL-HeLa | 1 h | 133
CCCCC[C@H](O)/C=C/[C@H]1[C@H](O)CC(=O)[C@@H]1C/C=C\CCCC(=O)O | PTGER1 (Homo sapiens, UniProt P34995, V337A) | IP1 accumulation, agonist | AD293 | EP1 V337A mutant | 86.5

Some of these lines once more:
Compound | target | test | system | conditions | EC50 [nM]
COc1cc2c(=O)c(-c3ccc(O)cc3)coc2cc1O | ESR2 | array formation, agonist | GFP-ERβ PRL-HeLa | 1 h | 127
O=C(/C=C/c1ccccc1)c1ccccc1 | ESR2 | array formation, agonist | GFP-ERβ PRL-HeLa | 1 h | 696
